Published values collected from several papers.
Lines come from different studies, so protocols differ.
Cell line: MDA-MB-468

`CC(C)(C)NCCCn1c(Sc2cc(Cl)cc(Cl)c2)nc2c(N)nc(F)nc21` gave an IC50 of 0.05 µM (cell growth or viability, resazurin; 72 h).
The IC50 of `CC(C)c1ccc(N(C)c2ccc3c(c2)OCC[C@H]3CNc2cnccc2C(=O)O)cc1` is reported as at least 10 µM (cell growth or viability, ATP luminescence; 7 days).
`CCOc1cncc(-c2ccc(NC(=O)C3(c4ccnc(NS(=O)(=O)C5CC5)n4)CCOCC3)nc2)n1` gave an IC50 of 1.94 µM (cell growth or viability, ATP luminescence; 72 h).
`Cc1cnc(Nc2ccc3c(c2)CCN(C(=O)/C=C/C(=O)C2CCC(C)CC2)C3)nc1-c1cnn(C(C)C)c1` (stereo not drawn) has an IC50 of 1.15 µM (cell growth or viability, MTT; 48 h).
The IC50 of `O=C(CN1CCCCC1)N1CCN(CC(OCc2ccc3ccccc3c2)c2ccc(Cl)cc2Cl)CC1` (stereo not drawn) is reported as 13.5 µM (cell growth or viability, MTT; 24 h).
With `C/C=C/c1cc(Cl)cc(Sc2nc3c(N)ncnc3n2CCCNC(C)C)c1` the IC50 was 0.23 µM (cell growth or viability, resazurin; 72 h).
With `O=C(c1ccc(Cl)cc1Cl)N1CCN(CC(OCc2ccc3ccccc3c2)c2ccc(Cl)cc2Cl)CC1` (stereo not drawn) the IC50 was 38.4 µM (cell growth or viability, MTT; 24 h).
With `Cc1ccnc(-c2cc(C(=O)O)ccn2)c1.F[P-](F)(F)(F)(F)F.F[P-](F)(F)(F)(F)F.[Ru+2].c1ccc(-c2ccccn2)nc1.c1ccc(-c2ccccn2)nc1` the IC50 was over 100 µM (cell viability; 48 h, dark).
`Clc1ccc(COC(Cn2cnc3ccccc32)c2ccc(Cl)cc2Cl)cc1` (stereo not drawn) gave an IC50 of 48.7 µM (cell growth or viability, MTT; 24 h).
`COC(=O)N1c2ccc3c(nc(Cc4ccccc4)n3[C@@H]3CCC[C@@H](C(=O)O)C3)c2CC[C@@H]1C` gave an IC50 of 3.13 µM (cell growth or viability, ATP luminescence; 10 days).
`Cc1ccc([N+](=O)[O-])cc1S(=O)(=O)N(C)/N=C/c1cnc2ccc(Br)cn12` has an IC50 of 0.103 µM (cell growth or viability).
For `Clc1ccc(C(Cn2cnc3ccccc32)OCc2ccc(Br)cc2)c(Cl)c1` (stereo not drawn), the IC50 was 45.4 µM (cell growth or viability, MTT; 24 h).
The IC50 of `CC(C)=Cc1cc(Cl)cc(Sc2nc3c(N)ncnc3n2CCCNC(C)C)c1` is reported as 9.5 µM (cell growth or viability, resazurin; 72 h).
`O=C(c1ccccc1)N1CCN(CC(OCc2ccc3ccccc3c2)c2ccc(Cl)cc2Cl)CC1` (stereo not drawn) has an IC50 of over 50 µM (cell growth or viability, MTT; 24 h).
The IC50 of `CC(C)NCCCn1c(Sc2cc(Cl)cc(I)c2)nc2c(N)ncnc21` is reported as 0.12 µM (cell growth or viability, resazurin; 72 h).
